Assay results collected from several papers.
Compare with care: the assays were run in different laboratories. Numbers after ± are the reported error.
Sequence of UniProt P41594 (whole entry, looked up): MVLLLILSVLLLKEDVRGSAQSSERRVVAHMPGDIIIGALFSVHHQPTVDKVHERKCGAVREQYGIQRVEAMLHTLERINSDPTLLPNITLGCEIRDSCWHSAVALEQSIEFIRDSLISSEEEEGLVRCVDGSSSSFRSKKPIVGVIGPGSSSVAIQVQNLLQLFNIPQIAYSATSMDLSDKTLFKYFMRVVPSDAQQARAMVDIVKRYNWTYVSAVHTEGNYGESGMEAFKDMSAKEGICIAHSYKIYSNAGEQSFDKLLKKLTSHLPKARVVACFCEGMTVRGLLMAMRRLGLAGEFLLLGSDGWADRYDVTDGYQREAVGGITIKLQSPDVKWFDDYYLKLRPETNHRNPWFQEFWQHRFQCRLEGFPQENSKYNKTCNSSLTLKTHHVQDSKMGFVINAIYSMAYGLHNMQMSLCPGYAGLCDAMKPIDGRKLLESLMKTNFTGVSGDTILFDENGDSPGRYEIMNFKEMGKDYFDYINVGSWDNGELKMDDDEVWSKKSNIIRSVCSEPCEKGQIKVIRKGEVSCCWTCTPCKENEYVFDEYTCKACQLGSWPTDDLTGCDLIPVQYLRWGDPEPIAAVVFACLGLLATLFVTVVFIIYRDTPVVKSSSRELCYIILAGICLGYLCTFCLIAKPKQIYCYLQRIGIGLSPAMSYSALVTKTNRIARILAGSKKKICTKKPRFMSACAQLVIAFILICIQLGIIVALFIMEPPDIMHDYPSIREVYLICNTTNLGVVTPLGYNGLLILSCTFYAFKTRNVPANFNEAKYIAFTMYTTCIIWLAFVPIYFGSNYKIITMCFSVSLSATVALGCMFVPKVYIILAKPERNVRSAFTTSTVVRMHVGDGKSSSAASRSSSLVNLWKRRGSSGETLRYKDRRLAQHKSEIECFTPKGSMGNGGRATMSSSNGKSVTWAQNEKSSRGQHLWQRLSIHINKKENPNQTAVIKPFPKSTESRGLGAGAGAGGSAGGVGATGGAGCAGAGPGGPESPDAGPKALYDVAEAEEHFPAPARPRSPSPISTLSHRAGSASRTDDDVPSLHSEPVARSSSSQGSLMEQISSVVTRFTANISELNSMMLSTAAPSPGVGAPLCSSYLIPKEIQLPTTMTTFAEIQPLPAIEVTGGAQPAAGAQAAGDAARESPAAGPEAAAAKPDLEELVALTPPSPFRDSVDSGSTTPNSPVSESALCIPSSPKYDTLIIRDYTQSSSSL
Sequence of UniProt P39656 (whole entry, looked up): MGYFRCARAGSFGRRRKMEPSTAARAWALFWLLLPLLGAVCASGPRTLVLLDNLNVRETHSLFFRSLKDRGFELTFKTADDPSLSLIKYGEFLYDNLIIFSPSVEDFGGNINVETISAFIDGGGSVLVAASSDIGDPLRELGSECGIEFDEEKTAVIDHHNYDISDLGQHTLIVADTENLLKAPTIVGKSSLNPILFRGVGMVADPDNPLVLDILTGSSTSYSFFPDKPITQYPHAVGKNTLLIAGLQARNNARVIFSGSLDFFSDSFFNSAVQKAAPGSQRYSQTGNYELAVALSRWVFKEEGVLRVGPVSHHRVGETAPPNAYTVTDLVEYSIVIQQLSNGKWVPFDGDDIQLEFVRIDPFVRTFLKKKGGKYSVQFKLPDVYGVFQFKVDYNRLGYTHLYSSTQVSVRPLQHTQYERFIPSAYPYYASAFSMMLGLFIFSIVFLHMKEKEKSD

Structure (SMILES) = C1=C(c2ccc(CN3CCCCC3)cc2)N2CCN=C2c2ccccc21; target or system = 293T-ACE2; setting = 40 (unit not given); endpoint = CC50; result = > 2.5 µM
Structure (SMILES) = c1csc(-c2ccc(-c3cccs3)s2)c1; target or system = PH5CH8 (oleate-loaded); setting = 72 h, with: sodium oleate 1 mM; endpoint = CC50; result = > 15 µM
Structure (SMILES) = C=C(C)[C@@H]1CC[C@]2(C(=O)Nc3ccccc3)CC[C@]3(C)[C@H](CC[C@@H]4[C@@]5(C)CC[C@H](O[C@@H]6O[C@H](CO)[C@@H](O[C@@H]7O[C@@H](C)[C@H](O)[C@@H](O)[C@H]7O)[C@H](O)[C@H]6O[C@@H]6O[C@@H](C)[C@H](O)[C@@H](O)[C@H]6O)C(C)(C)[C@@H]5CC[C@]43C)[C@@H]12; target or system = 293T-ACE2; test = cytotoxicity, MTT; setting = 48 h, 50% serum; endpoint = CC50; result = > 200 µM
Structure (SMILES) = CCC(CC)COC(=O)[C@H](C)N[P@](=O)(OC[C@H]1O[C@@](C#N)(c2ccc3c(N)ncnn23)[C@H](O)[C@@H]1O)Oc1ccccc1; target or system = 293T-ACE2; setting = 40 (unit not given); endpoint = CC50; result = 0.72 µM
Structure (SMILES) = CC(C)C[C@H](NC(=O)OCc1ccccc1)C(=O)N[C@H](C=O)C[C@@H]1CCCNC1=O; target or system = human PBM cells; test = cytotoxicity; endpoint = CC50; result = > 100 µM
Structure (SMILES) = COc1cc2c(Oc3ccc4[nH]c(C)cc4c3F)ccnc2cc1OCC1(N)CC1; test system = paediatric recurrent refractory sarcoma; setting = 12 mg; endpoint = grade 3 sinus tachycardia; result = 0%
Structure (SMILES) = CCC(CC)COC(=O)[C@H](C)N[P@](=O)(OC[C@H]1O[C@@](C#N)(c2ccc3c(N)ncnn23)[C@H](O)[C@@H]1O)Oc1ccccc1; target or system = human PBM cells; endpoint = CC50; result = 4.4 ± 2.2 µM
Structure (SMILES) = COc1cc(Nc2ncc(F)c(Nc3ccc4c(n3)NC(=O)C(C)(C)O4)n2)cc(OC)c1OC; target or system = Metabotropic glutamate receptor 5 (GRM5, Homo sapiens, UniProt P41594); test = binding; endpoint = IC50; result = > 10 µM
Structure (SMILES) = CO[C@H]1C[C@@H]2CC[C@@H](C)[C@@](O)(O2)C(=O)C(=O)N2CCCC[C@H]2C(=O)O[C@H]([C@H](C)C[C@@H]2CC[C@@H](OC(=O)NCCOCCOCCOCCOCCOCCOCCOCCOCCC(=O)N3CCc4cc(Cn5nc(-c6ccc7oc(N)nc7c6)c6c(N)ncnc65)ccc4C3)[C@H](OC)C2)C[C@@H](O)[C@H](C)/C=C(\C)[C@@H](O)[C@@H](OC)C(=O)[C@H](C)C[C@H](C)/C=C/C=C/C=C/1C; test = phase 1 dose escalation, measured: gastric haemorrhage; test system = advanced solid tumour patients; setting = intravenous, 12 mg weekly, grade ≥3; endpoint = dose-reducing adverse events; result = 0%
Structure (SMILES) = CC[C@H](C)[C@H](NC(=O)[C@H](Cc1ccccc1)NC(=O)[C@H](CCC(=O)O)NC(=O)[C@H](CCCNC(=N)N)NC(=O)[C@H](C)NC(=O)[C@H](C)NC(=O)[C@H](CCC(N)=O)NC(=O)[C@H](CCC(=O)O)NC(=O)[C@H](CCC(=O)O)NC(=O)[C@H](CC(C)C)NC(=O)[C@H](Cc1ccc(O)cc1)NC(=O)[C@H](CO)NC(=O)[C@H](CO)NC(=O)[C@@H](NC(=O)[C@H](CC(=O)O)NC(=O)[C@H](CO)NC(=O)[C@@H](NC(=O)[C@H](Cc1ccccc1)NC(=O)[C@@H](NC(=O)CNC(=O)[C@H](CCC(=O)O)NC(=O)[C@H](C)NC(=O)CCc1c[nH]cn1)[C@@H](C)O)[C@@H](C)O)C(C)C)C(=O)N[C@@H](C)C(=O)N[C@@H](Cc1c[nH]c2ccccc12)C(=O)N[C@@H](CC(C)C)C(=O)N[C@H](C(=O)N[C@@H](CCCNC(=N)N)C(=O)NCC(=O)N[C@@H](CCCNC(=N)N)C(=O)N[C@@H](CCCCNC(=O)COCCOCCNC(=O)COCCOCCNC(=O)CC[C@H](NC(=O)CCCCCCCCCCCCCCCCC(=O)O)C(=O)O)C(=O)NCC(=O)NCC(=O)N[C@@H](CO)C(=O)N[C@@H](CCCCNc1c(NCCCCCN(O)C(=O)CCC(=O)NCCCCCN(O)C(=O)CCC(=O)NCCCCCN(O)C(C)=O)c(=O)c1=O)C(=O)O)C(C)C [zirconium-89 labelled]; test = gamma counting; test system = rat, skin of neck; setting = subcutaneous, 3 nmol/kg, 24 h; endpoint = tissue uptake; result = 0.27 %ID/g
Structure (SMILES) = COc1ccc(-c2cc(=O)c3c(OC)cc(OC)cc3o2)cc1; target or system = A549-hACE2; test = cytotoxicity; setting = 96 h; endpoint = CC50; result = 50.8 ± 4.83 µM
Structure (SMILES) = CC(C)(C)[C@H](NC(=O)C(F)(F)F)C(=O)N1C[C@H]2[C@@H]([C@H]1C(=O)N[C@H](C#N)C[C@@H]1CCNC1=O)C2(C)C; target or system = human PBM cells; endpoint = CC50; result = > 100 µM
Structure (SMILES) = COC(=O)[C@@H]1[C@@H](c2ccccc2)[C@]2(c3ccc(OC)cc3)Oc3cc(OC)cc(OC)c3[C@@]23N=C(C)N[C@@]13O; target or system = transfected HepG2; test = MTT; setting = 48 h; endpoint = CC50; result = 0.0197 µM
Structure (SMILES) = C[C@H]1CN(c2n[nH]c3nc(N[C@H]4CC[C@H](NS(=O)(=O)CCC(F)(F)F)CC4)ncc23)CCO1; target or system = Dolichyl-diphosphooligosaccharide--protein glycosyltransferase 48 kDa subunit (Homo sapiens, UniProt P39656); test = Kinobeads competition, measured: DDOST; setting = 0.16 µM, unit not given; how to read = relative to: vehicle; endpoint = remaining binding; result = 1.11
Structure (SMILES) = C[C@@H]1CS/C(=N\NC(=O)C(=O)[C@H](NC(=O)C2CCCCCC2)C2CCOCC2)N1C; target or system = 293T-ACE2; setting = 40 (unit not given); endpoint = CC50; result = > 2.5 µM
Structure (SMILES) = CN1CC[C@@H](c2c(O)cc(O)c3c(=O)cc(-c4ccc(C(F)(F)F)cc4Cl)oc23)[C@@H]1CO; test = measured: urinary incontinence; test system = B-cell malignancies or AML; setting = oral, 100 mg, grade 3 to 4, continuous dosing; endpoint = patients with adverse event; result = 0%
Structure (SMILES) = COc1ccc2cc1Oc1ccc(cc1)C[C@H]1c3cc(c(OC)cc3CCN1C)Oc1c(OC)c(OC)cc3c1[C@H](C2)N(C)CC3; target or system = 293T-ACE2; setting = 40 (unit not given); endpoint = CC50; result = > 2.5 µM
Structure (SMILES) = CC(C)C[C@H](NC(=O)OCc1ccccc1)C(=O)N[C@@H](CC(C)C)C(=O)N[C@@H](CC1CCNC1=O)C(=O)C(=O)NC1CC1 (stereo partly shown); target or system = MRC5; setting = 5 (unit not given); endpoint = CC50; result = 110 ± 9.8 µM
Structure (SMILES) = COc1cc2c3c(c1OC)-c1ccccc1C[C@H]3N(C)CC2; target or system = A549-hACE2; test = cytotoxicity; setting = 96 h; endpoint = CC50; result = 86.7 ± 13.4 µM

Repeated from above:
Structure (SMILES) = CC[C@H](C)[C@H](NC(=O)[C@H](Cc1ccccc1)NC(=O)[C@H](CCC(=O)O)NC(=O)[C@H](CCCNC(=N)N)NC(=O)[C@H](C)NC(=O)[C@H](C)NC(=O)[C@H](CCC(N)=O)NC(=O)[C@H](CCC(=O)O)NC(=O)[C@H](CCC(=O)O)NC(=O)[C@H](CC(C)C)NC(=O)[C@H](Cc1ccc(O)cc1)NC(=O)[C@H](CO)NC(=O)[C@H](CO)NC(=O)[C@@H](NC(=O)[C@H](CC(=O)O)NC(=O)[C@H](CO)NC(=O)[C@@H](NC(=O)[C@H](Cc1ccccc1)NC(=O)[C@@H](NC(=O)CNC(=O)[C@H](CCC(=O)O)NC(=O)[C@H](C)NC(=O)CCc1c[nH]cn1)[C@@H](C)O)[C@@H](C)O)C(C)C)C(=O)N[C@@H](C)C(=O)N[C@@H](Cc1c[nH]c2ccccc12)C(=O)N[C@@H](CC(C)C)C(=O)N[C@H](C(=O)N[C@@H](CCCNC(=N)N)C(=O)NCC(=O)N[C@@H](CCCNC(=N)N)C(=O)N[C@@H](CCCCNC(=O)COCCOCCNC(=O)COCCOCCNC(=O)CC[C@H](NC(=O)CCCCCCCCCCCCCCCCC(=O)O)C(=O)O)C(=O)NCC(=O)NCC(=O)N[C@@H](CO)C(=O)N[C@@H](CCCCNc1c(NCCCCCN(O)C(=O)CCC(=O)NCCCCCN(O)C(=O)CCC(=O)NCCCCCN(O)C(C)=O)c(=O)c1=O)C(=O)O)C(C)C [zirconium-89 labelled]; test = gamma counting; test system = rat, skin of neck; setting = subcutaneous, 3 nmol/kg, 24 h; endpoint = tissue uptake; result = 0.27 %ID/g
Structure (SMILES) = COc1ccc(-c2cc(=O)c3c(OC)cc(OC)cc3o2)cc1; target or system = A549-hACE2; test = cytotoxicity; setting = 96 h; endpoint = CC50; result = 50.8 ± 4.83 µM
Structure (SMILES) = CC(C)(C)[C@H](NC(=O)C(F)(F)F)C(=O)N1C[C@H]2[C@@H]([C@H]1C(=O)N[C@H](C#N)C[C@@H]1CCNC1=O)C2(C)C; target or system = human PBM cells; endpoint = CC50; result = > 100 µM
